Experimental data pooled from the literature.
Compare with care: the assays were run in different laboratories. ± marks the error that the study gave.
rep R3428I 3C-like proteinase: Replicase polyprotein 1ab, 3C-like proteinase (rep, Severe acute respiratory syndrome-related coronavirus, UniProt P0C6X7, R3428I)

Structure (SMILES) | target | test | system | conditions | IC50 [µM]
CC[C@H](C(=O)Nc1cc(NC2CCNCC2)ccc1C)n1cc(Cl)cc2nc(SCc3ccc(F)cc3)nc1-2 | Replicase polyprotein 1ab, papain-like protease (rep, Severe acute respiratory syndrome-related coronavirus, UniProt P0C6X7) | enzyme activity | – | – | 4.62 ± 0.996
COc1cc(/C=C/C(=O)OC[C@H](NC(=O)/C=C/c2ccccc2)C(=O)NC2CCCCC2)cc(OC)c1OC | rep R3428I 3C-like proteinase | enzyme activity, inhibitor, HPLC substrate depletion | – | pH 4.0 | 170
CC(C)C[C@H](NC(=O)[C@@H](NC(=O)CCc1ccccc1)C(C)C)C(=O)N[C@@H](C[C@@H]1CCNC1=O)C(=O)c1nccs1 | rep R3428I 3C-like proteinase | enzyme activity, inhibitor, HPLC | – | 60 min, 37 °C, with: substrate 111 µM | 13
CC[C@H](CC[C@@H](C)[C@H]1CC[C@H]2[C@@H]3CC=C4C[C@@H](O)CC[C@]4(C)[C@H]3CC[C@]12C)C(C)C | Replicase polyprotein 1ab, 3C-like proteinase (rep, Severe acute respiratory syndrome-related coronavirus, UniProt P0C6X7) | 3CLpro cleavage, inhibitor, luciferase reporter | Vero | – | 1210
CC(C)[C@H](NC(=O)OCc1ccccc1)C(=O)N[C@@H](CCC(=O)O)C(=O)N[C@@H](C[C@@H]1CCNC1=O)C(=O)c1nc2ccccc2s1 | rep R3428I 3C-like proteinase | enzyme activity, inhibitor, HPLC | – | 60 min, 37 °C, with: substrate 111 µM | > 1600
O=C(/C=C/c1ccccc1)N[C@H](CO)C(=O)NC1CCCCC1 | rep R3428I 3C-like proteinase | enzyme activity, inhibitor, HPLC substrate depletion | – | pH 4.0 | > 1600
CC(C)C[C@H](NC(=O)[C@@H](NC(=O)OCc1ccccc1)C(C)C)C(=O)N[C@@H](Cc1c[nH]cn1)C(=O)c1nccs1 | rep R3428I 3C-like proteinase | enzyme activity, inhibitor, HPLC | – | 60 min, 37 °C, with: substrate 111 µM | 260
O=C(/C=C/c1ccccc1)N[C@@H](COC(=O)c1cccnc1)C(=O)NC1CCCCC1 | rep R3428I 3C-like proteinase | enzyme activity, inhibitor, HPLC substrate depletion | – | pH 4.0 | 180
COc1c(C)c2c(c(O)c1C/C=C(\C)CCC(=O)O)C(=O)OC2 | Replicase polyprotein 1ab, papain-like protease (rep, Severe acute respiratory syndrome-related coronavirus, UniProt P0C6X7, E1707R) | protease activity, inhibitor | – | with: peptide substrate 20 µM | 260 ± 21

Some of these lines once more:
Structure (SMILES) | target | test | system | conditions | IC50 [µM]
CC(C)[C@H](NC(=O)OCc1ccccc1)C(=O)N[C@@H](CCC(=O)O)C(=O)N[C@@H](C[C@@H]1CCNC1=O)C(=O)c1nc2ccccc2s1 | rep R3428I 3C-like proteinase | enzyme activity, inhibitor, HPLC | – | 60 min, 37 °C, with: substrate 111 µM | > 1600
